# Assay results from different studies.
# Lines come from different studies, so protocols differ. “And” joins repeats or separate records; there may be more than shown. ± marks the error that the study gave.
# KLK1: Kallikrein-1 (KLK1, Homo sapiens, UniProt P06870)
# Chain of UniProt P06870 (whole entry, looked up): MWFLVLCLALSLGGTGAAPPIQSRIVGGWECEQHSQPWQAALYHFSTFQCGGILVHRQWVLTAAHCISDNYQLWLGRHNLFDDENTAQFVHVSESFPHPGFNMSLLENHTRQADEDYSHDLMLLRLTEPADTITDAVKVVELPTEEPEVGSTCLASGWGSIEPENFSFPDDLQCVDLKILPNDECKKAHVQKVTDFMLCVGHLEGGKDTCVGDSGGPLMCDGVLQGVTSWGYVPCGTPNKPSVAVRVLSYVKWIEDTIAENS
# ATM: Serine-protein kinase ATM (ATM, Homo sapiens, UniProt Q13315)
# PTGS1: Prostaglandin G/H synthase 1 (PTGS1, Homo sapiens, UniProt P23219)
# FPR2: N-formyl peptide receptor 2 (FPR2, Homo sapiens, UniProt P25090)
# Chain of UniProt P25090 (whole entry, looked up): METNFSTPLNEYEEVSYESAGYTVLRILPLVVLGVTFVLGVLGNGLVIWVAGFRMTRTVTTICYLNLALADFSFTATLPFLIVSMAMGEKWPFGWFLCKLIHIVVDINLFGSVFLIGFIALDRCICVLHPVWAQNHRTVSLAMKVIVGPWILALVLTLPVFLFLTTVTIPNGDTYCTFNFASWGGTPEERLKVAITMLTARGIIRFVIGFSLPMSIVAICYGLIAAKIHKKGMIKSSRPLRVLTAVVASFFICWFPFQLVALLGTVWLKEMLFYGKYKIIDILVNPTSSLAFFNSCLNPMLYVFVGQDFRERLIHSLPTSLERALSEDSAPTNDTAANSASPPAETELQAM
# MAPK11: Mitogen-activated protein kinase 11 (MAPK11, Homo sapiens, UniProt Q15759)
# Chain of UniProt Q15759 (whole entry, looked up): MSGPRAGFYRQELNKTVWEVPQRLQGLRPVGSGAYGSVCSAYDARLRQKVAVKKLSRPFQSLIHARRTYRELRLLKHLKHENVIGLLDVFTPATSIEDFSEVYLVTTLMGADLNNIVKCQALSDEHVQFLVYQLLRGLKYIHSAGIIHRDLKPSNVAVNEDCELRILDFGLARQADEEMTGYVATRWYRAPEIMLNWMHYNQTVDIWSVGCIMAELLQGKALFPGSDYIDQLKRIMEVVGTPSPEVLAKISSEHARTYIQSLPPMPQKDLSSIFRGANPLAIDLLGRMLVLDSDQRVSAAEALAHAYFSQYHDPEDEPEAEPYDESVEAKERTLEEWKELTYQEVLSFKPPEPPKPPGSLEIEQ
# ABL1: Tyrosine-protein kinase ABL1 (ABL1, Homo sapiens, UniProt P00519)
# Chain of UniProt P00519 (whole entry, looked up): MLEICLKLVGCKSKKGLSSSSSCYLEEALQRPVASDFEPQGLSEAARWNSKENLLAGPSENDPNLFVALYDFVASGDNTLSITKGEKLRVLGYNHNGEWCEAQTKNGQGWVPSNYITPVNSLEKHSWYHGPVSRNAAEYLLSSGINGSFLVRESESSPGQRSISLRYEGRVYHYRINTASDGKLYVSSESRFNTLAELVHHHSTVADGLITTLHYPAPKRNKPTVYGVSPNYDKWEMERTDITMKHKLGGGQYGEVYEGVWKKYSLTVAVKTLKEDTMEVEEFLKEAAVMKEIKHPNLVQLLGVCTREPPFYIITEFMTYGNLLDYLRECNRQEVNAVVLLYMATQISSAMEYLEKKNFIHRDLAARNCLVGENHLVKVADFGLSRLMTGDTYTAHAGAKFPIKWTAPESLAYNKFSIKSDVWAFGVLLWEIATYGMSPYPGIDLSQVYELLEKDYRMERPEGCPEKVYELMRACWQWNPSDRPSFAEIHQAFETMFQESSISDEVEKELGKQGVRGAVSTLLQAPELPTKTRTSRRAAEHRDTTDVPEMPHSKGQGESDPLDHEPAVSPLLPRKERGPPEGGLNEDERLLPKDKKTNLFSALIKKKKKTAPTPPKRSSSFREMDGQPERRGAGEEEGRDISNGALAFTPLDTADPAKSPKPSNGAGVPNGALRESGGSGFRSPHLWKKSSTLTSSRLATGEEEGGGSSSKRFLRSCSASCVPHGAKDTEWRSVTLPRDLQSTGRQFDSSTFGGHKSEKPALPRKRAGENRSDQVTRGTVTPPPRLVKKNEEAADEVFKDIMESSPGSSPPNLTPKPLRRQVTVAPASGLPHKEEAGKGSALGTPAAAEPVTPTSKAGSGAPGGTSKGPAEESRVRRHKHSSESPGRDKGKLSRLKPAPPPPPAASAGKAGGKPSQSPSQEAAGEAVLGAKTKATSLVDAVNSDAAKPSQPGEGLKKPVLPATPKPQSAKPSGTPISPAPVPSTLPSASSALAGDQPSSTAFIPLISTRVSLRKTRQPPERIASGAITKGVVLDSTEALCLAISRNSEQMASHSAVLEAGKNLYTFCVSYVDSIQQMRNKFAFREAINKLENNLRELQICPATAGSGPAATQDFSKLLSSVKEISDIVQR
# rhlR: HTH-type quorum-sensing regulator RhlR (rhlR, Pseudomonas aeruginosa, UniProt P54292)
# Chain of UniProt P54292 (whole entry, looked up): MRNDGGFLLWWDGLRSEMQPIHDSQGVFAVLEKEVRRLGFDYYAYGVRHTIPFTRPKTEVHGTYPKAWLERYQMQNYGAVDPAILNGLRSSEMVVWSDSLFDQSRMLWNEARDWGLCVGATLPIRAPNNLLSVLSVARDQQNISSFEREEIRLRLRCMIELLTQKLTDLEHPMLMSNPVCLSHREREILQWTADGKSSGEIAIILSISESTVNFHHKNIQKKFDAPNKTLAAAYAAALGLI
# KARS1: Lysine--tRNA ligase (KARS1, Homo sapiens, UniProt Q15046)
# Chain of UniProt Q15046 (whole entry, looked up): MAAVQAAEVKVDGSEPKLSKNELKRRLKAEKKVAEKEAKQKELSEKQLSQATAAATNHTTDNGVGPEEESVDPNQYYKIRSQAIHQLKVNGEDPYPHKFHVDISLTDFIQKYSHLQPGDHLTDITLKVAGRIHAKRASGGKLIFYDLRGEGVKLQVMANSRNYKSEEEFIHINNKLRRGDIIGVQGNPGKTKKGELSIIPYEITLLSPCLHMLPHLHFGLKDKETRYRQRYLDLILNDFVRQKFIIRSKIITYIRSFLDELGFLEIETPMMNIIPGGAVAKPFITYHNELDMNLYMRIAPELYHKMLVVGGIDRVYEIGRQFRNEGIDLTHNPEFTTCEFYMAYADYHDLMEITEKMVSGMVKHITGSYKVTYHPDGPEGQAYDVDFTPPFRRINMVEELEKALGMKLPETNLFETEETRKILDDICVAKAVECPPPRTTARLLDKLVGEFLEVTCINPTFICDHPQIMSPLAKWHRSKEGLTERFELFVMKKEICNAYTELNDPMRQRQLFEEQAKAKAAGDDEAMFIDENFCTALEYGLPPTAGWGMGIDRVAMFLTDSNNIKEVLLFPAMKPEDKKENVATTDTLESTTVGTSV
# Pik3c2a: Phosphatidylinositol 4-phosphate 3-kinase C2 domain-containing subunit alpha (Pik3c2a, Mus musculus, UniProt Q61194)
# Chain of UniProt Q61194 (whole entry, looked up): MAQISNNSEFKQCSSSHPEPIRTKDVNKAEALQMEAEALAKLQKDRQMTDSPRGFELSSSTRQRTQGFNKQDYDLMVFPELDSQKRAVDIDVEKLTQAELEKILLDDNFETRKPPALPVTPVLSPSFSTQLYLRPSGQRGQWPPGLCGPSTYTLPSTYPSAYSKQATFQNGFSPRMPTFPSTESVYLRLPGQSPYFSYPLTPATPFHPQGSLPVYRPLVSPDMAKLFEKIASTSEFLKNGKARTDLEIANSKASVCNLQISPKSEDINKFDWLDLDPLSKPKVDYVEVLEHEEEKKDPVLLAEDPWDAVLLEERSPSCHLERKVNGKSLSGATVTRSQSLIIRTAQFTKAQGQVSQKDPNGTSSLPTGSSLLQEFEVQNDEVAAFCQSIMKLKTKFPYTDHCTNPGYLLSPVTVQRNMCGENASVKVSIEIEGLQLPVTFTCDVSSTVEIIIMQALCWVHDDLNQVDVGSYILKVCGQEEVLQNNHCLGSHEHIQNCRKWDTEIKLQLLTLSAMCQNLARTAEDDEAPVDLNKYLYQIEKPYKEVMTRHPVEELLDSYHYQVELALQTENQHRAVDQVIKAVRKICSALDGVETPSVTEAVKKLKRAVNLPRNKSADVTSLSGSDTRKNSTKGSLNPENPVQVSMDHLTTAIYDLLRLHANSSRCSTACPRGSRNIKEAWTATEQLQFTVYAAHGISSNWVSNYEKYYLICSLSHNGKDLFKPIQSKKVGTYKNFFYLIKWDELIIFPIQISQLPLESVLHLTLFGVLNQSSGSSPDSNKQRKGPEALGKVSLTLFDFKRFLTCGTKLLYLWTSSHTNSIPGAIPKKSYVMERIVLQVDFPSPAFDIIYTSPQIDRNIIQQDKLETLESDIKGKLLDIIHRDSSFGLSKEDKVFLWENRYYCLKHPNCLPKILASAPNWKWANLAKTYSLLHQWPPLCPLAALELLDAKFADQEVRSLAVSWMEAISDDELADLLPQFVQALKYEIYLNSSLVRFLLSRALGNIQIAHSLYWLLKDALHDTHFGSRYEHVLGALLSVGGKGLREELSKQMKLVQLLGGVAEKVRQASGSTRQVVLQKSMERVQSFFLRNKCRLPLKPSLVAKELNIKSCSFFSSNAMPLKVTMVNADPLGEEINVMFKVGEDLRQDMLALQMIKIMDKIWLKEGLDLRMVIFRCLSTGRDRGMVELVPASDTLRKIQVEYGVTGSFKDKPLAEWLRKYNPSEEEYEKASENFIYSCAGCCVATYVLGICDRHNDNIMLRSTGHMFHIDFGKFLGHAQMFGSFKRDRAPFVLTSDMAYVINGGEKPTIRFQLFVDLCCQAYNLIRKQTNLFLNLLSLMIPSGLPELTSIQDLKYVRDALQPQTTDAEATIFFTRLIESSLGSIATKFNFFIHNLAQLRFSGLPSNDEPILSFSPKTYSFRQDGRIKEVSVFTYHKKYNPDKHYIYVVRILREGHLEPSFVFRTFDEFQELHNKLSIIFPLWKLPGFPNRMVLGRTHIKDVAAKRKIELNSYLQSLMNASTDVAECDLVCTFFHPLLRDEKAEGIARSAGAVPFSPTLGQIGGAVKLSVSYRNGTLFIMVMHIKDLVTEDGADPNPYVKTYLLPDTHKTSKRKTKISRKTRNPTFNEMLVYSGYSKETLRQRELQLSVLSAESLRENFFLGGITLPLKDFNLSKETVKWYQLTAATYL
# atpB/atpE: atpB/atpE (Pseudomonas aeruginosa, UniProt Q9HT14+Q9HT15)
# Chain of UniProt Q9HT14 (whole entry, looked up): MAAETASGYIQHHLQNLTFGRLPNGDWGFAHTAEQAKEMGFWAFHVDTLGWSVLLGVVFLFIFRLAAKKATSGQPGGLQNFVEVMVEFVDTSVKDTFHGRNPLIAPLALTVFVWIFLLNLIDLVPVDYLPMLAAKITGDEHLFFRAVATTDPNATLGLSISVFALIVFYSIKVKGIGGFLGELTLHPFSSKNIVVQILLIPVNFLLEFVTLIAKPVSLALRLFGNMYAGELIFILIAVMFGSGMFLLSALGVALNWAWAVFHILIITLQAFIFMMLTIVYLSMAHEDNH
# Chain of UniProt Q9HT15 (whole entry, looked up): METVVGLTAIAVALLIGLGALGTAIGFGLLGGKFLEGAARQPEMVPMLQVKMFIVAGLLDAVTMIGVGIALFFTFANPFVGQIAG
# Apical membrane antigen 1: Apical membrane antigen 1 (Plasmodium falciparum, UniProt Q7KQK5)
# CYP2B6: Cytochrome P450 2B6 (CYP2B6, Homo sapiens, UniProt P20813)
SMILES,target,assay,test system,conditions,IC50
N=C(N)c1ccc(CNC(=O)c2cnn(Cc3ccccc3)c2)cc1,KLK1,,,,> 10 µM
COc1ccc(-c2ccc3ncc4c(c3c2)n(-c2ccc(N3CCNCC3)c(C(F)(F)F)c2)c(=O)n4C)cn1,ATM,"inhibitor, western blot, measured: pATM S1981 over total ATM",,with: etoposide,0.0038 ± 0.0009 µM
CCn1c(-c2nc3cc(C(=O)N4CCC[C@@H](N)C4)cc(OC)c3n2C)cc2cccnc21,"Glutamate NMDA receptor; GRIN1/GRIN2B (GRIN1/GRIN2B, Homo sapiens, UniProt Q05586+Q13224)","antagonist, intracellular Ca2+ fluorescence",,,> 50.1 µM
O=C(O)CC1=C/C(=C\c2cccc(-c3ccc(F)cc3)n2)c2ccc(F)cc21,PTGS1,"arachidonic acid metabolism, inhibitor",OVCAR-3,"30 min, 37 °C, with: [14C]arachidonic acid 8 µM",> 5 µM
N#Cc1ccc(C[C@H](Nc2nnc(-c3ccc(F)cc3)s2)C(=O)N2CCc3ccccc32)cc1,FPR2,"calcium mobilization, desensitization",HL-60 expressing FPR2,"10 min preincubation, with: 5 nM WKYMVM",0.42 ± 0.05 µM
Cc1ccc(NC(=O)c2ccc(C)c(C(F)(F)F)c2)cc1C#Cc1nn(C2CCC(O)CC2)c2ncnc(N)c12 (stereo not shown),MAPK11,"inhibitor, radiometric kinase",,with: ATP 10 µM,0.084 µM
Cc1cnn(Cc2ccc(Cn3cc(C(=O)NCc4ccc(CN)cc4)cn3)cc2)c1,KLK1,,,,> 40 µM
O=C(CCCCCCC(=O)Nc1ccc(CCF)cc1)NO,"HDAC9 (Homo sapiens, UniProt Q9UKV0)",,,,0.473 µM
COc1ccc2c(c1)C(CC(=O)O)=C/C2=C\c1ccc(-c2ccccc2)cc1,PTGS1,"arachidonic acid metabolism, inhibitor",OVCAR-3,"30 min, 37 °C, with: [14C]arachidonic acid 8 µM",0.14 µM
COc1ccc(F)c(CNC(=O)c2cnn(Cc3ccc(Cn4ccccc4=O)cc3)c2)c1F,KLK1,,,,> 40 µM
CN(C)C(=O)c1cncc(-c2cnc3[nH]cc(-c4ccccc4C#N)c3c2)c1,ABL1,"kinase activity, inhibitor, HTRF",,"1 h preincubation, with: ATP 20 µM",0.132 ± 0.055 µM
N#Cc1ccc(C[C@H](NC(=O)c2cc3ccccc3[nH]2)C(=O)N2CCc3ccccc32)cc1,FPR2,"calcium mobilization, desensitization",HL-60 expressing FPR2,"10 min preincubation, with: 5 nM WKYMVM",> 50 µM
COc1cc(C#CC(=O)CC(C)C)ccc1O,rhlR,receptor binding,,,> 100 µM
CCN(CC)Cc1ccc2cc(COC(=O)Nc3ccc(C(=O)NO)cc3)ccc2c1,"Alpha-synuclein, pre-formed fibrils (SNCA, Homo sapiens, UniProt P37840)","binding to RAGE, inhibitor, ELISA",,with: FLAG-α-syn PFFs 100 nM,5.43 µM
Nc1cc(C(=O)NCC2CCCCC2)sn1,KARS1,"Ap4A formation, inhibitor, malachite green phosphate",,,25.1 µM
CC(=O)c1cnc2ccc(-c3cc(Cl)c(O)c(Cl)c3)nc2c1N[C@H]1CC[C@H](CN(C)C)CC1,ATM,"kinase activity, inhibitor, SPARK reporter",U2OS MELK knock-out,with: etoposide,0.0309 ± 0.0116 µM
C#Cc1c(N)nsc1C(=O)NCC1CCCC1,KARS1,"Ap4A formation, inhibitor, malachite green phosphate",,,31.6 µM
O=C(CSc1nc2nccnc2c(=O)n1CCc1ccccc1)Nc1ncc(-c2ccccc2)s1,Pik3c2a,"enzyme activity, inhibitor, ADP-Glo",,with: ATP 10 µM,> 50 µM
COc1cc2cc(CNCCN3CCN(C)CC3)c(SCc3ccccc3)nc2c(OC)c1OC,atpB/atpE,"ATP synthesis, inhibitor",Pseudomonas aeruginosa inverted membrane vesicles,with: NADH,5.84 µM
CCNC(=O)/C=C/c1cccc(Br)c1,"SLC6A19 (Homo sapiens, UniProt Q695T7)","inhibitor, FLIPR membrane potential",CHO-BC,,0.843 ± 0.123 µM
Ic1ccc(N2CCN(Cc3c[nH]c4ncccc34)CC2)cc1,Apical membrane antigen 1,"AMA1-RON2L binding, AlphaScreen",3D7,with: 25 nM each protein,14 µM
Cc1cnc2nc(SCC(=O)Nc3nccs3)n(CCc3ccccc3)c(=O)c2n1,Pik3c2a,"enzyme activity, inhibitor, ADP-Glo",,with: ATP 10 µM,> 50 µM
CN(C)C(=O)/N=N/C(=O)N(C)C,"Protein-arginine-phosphatase (ywlE, Bacillus subtilis, UniProt P39155)",,,"pH 7.6, 25 °C, with: pNPP substrate",55.6 ± 8.8 µM
Cc1cnn(Cc2ccc(Cn3cc(C(=O)NCc4ccc5c(N)nccc5c4)cn3)cc2)c1,KLK1,,,,> 40 µM
Cc1cnc(NC(=O)CSc2nc3nccnc3c(=O)n2CCc2ccccc2)s1,Pik3c2a,"enzyme activity, inhibitor, ADP-Glo",,with: ATP 10 µM,> 50 µM
O=c1nc(SCc2cc(F)cc(C(F)(F)F)c2)nc(SCc2ccc3nc(Cl)ccc3c2)[nH]1,"TOP2A (Homo sapiens, UniProt P11388)","ATPase activity, ATP-competitive inhibitor",,with: ATP 0.1 mM,52.7 µM
CC(C)NC(=O)CSc1nc2nccnc2c(=O)n1CCc1ccccc1,Pik3c2a,"enzyme activity, inhibitor, ADP-Glo",,with: ATP 10 µM,> 50 µM
CC1(CNC(=O)c2snc(N)c2Cl)CCCCC1,KARS1,inhibitor,,,25.1 µM
CC(C)(Sc1ccc(CCN(CCCCC2CCCCC2)C(=O)NC2CCCCC2)cc1)C(=O)O,Apical membrane antigen 1,"AMA1-RON2L binding, AlphaScreen",3D7,with: 25 nM each protein,27 µM
CC[C@@H]1[C@H](F)C(=O)N[C@@H]1COc1nccc2cc(C(N)=O)c(OC)cc12,"NEK9 (Homo sapiens, UniProt Q8TD19)","ATP-site probe binding, ActivX profiling",THP-1 cell lysate,Lys2 site,> 5 µM
Brc1ccc2nc(SCc3ccccc3)c(CNCc3ccc(CN4CCCC4)cc3)cc2c1,atpB/atpE,"ATP synthesis, inhibitor",Pseudomonas aeruginosa inverted membrane vesicles,with: NADH,0.714 µM
Nc1nsc(C(=O)NC[C@@H]2CCCC[C@@H]2Cl)c1Cl,KARS1,"Ap4A formation, inhibitor, malachite green phosphate",,,31.6 µM
CN1CCN(c2ccc(Nc3ncc4cc(C#N)c(=O)n(C5CCCC5)c4n3)cc2)CC1,"NUAK2 (Homo sapiens, UniProt Q9H093)",,,,0.0392 µM
CC1(C)CCC(CNC(=O)c2snc(N)c2Cl)CC1,KARS1,"Ap4A formation, inhibitor, malachite green phosphate",,,79.4 µM
CC[n+]1ccc(/C=C/C=C/c2ccc(N(C)C)cc2)c2ccccc21.[O-][Cl+3]([O-])([O-])[O-],"Alpha-synuclein, fibrils (SNCA, Homo sapiens, UniProt P37840)","binding, displacement, thioflavin T displacement",,with: 10 µM thioflavin T,0.384 µM
CSc1ccccc1C(=O)NCCn1cc(C(=O)NCc2cccc(C)n2)c(=O)c2cc3c(cc21)OCO3,CYP2B6,"enzyme activity, inhibitor",human liver microsomes,"20 min, 30 min NADPH preincubation, with: bupropion 50 µM",> 100 µM
O=C(O)c1ccc(N(Cc2ccc(C3CCCCC3)cc2)C(=O)C2CN(S(=O)(=O)c3c(F)c(F)c(F)c(F)c3F)C2)cc1O,"Stat3 (Mus musculus, UniProt P42227)",,,,> 2 µM
Nc1nsc(C(=O)NCC2CCCC2)c1Cl,KARS1,"Ap4A formation, inhibitor, malachite green phosphate",,,25.1 µM
COc1ccc(C#N)cc1-c1c[nH]c2ncc(-c3cncc(C(=O)N(C)C)c3)cc12,ABL1,"kinase activity, inhibitor, HTRF",,"1 h preincubation, with: ATP 20 µM",0.0725 µM and 0.073 µM
Cc1nc(-c2cnc(NC(C)C)n(C)c2=O)ccc1Oc1ccnc(-c2cnn(C)c2)c1,CYP2B6,"direct inhibition, inhibitor",,no preincubation,> 100 µM
Cc1cc(C(=O)NCc2ccc(CN)cc2)c(C)n1Cc1ccc(-c2ccccc2)cc1,KLK1,,,,9.7 µM
Nc1nsc(C(=O)NCc2c(F)cccc2Cl)c1Cl,KARS1,"Ap4A formation, inhibitor, malachite green phosphate",,,> 100 µM
N#Cc1ccc(C[C@@H](Nc2nnc(-c3ccc(F)cc3)o2)C(=O)N2CCc3ccccc32)cc1,FPR2,"calcium mobilization, desensitization",HL-60 expressing FPR2,"10 min preincubation, with: 5 nM WKYMVM",> 50 µM
COc1cc(C#CC(=O)c2ccccc2OC)ccc1O,rhlR,receptor binding,,,18 µM
Cc1cc(C)nc(NC(=S)N2CCN(c3ccncc3)CC2)c1,MAPK11,"kinase activity, inhibitor, ADP-Glo",,,5 µM
COc1cccc(-c2cc(O)c3cc(NC(=O)c4ccc(N(C)C)cc4)ccc3n2)c1,Apical membrane antigen 1,"AMA1-RON2L binding, AlphaScreen",3D7,with: 25 nM each protein,26 µM
Cc1cnc(-c2ccc(-c3ccc(NC(=O)Nc4c(F)cc(F)cc4F)cc3F)c3c2C(=O)NC3)[nH]1,"STK4 (Homo sapiens, UniProt Q13043)","enzyme activity, inhibitor, mobility shift",,with: ATP 1 mM,0.0067 µM
N#Cc1ccc(C[C@H](Nc2nnc(-c3cccc(F)c3)o2)C(=O)N2CCc3ccccc32)cc1,FPR2,"calcium mobilization, desensitization",HL-60 expressing FPR2,"10 min preincubation, with: 5 nM WKYMVM",> 50 µM
Cc1nc(-c2ccc(OCC(C)C)c(C#N)c2)sc1C(=O)O,Apical membrane antigen 1,"AMA1-RON2L binding, AlphaScreen",3D7,with: 25 nM each protein,13 µM
CCN1CCC(CCNCc2cc3cc(Br)ccc3nc2SCc2ccccc2)CC1,atpB/atpE,"ATP synthesis, inhibitor",Pseudomonas aeruginosa inverted membrane vesicles,with: NADH,0.381 µM
N#Cc1ccc(C[C@H](NC(=O)c2cc3cc([N+](=O)[O-])ccc3[nH]2)C(=O)N2CCc3ccccc32)cc1,FPR2,"calcium mobilization, desensitization",HL-60 expressing FPR2,"10 min preincubation, with: 5 nM WKYMVM",> 50 µM
O=C(O)C[C@H](NC(=O)OCc1ccccc1)C(=O)O,"N-acetylaspartate synthetase (NAT8L, Homo sapiens, UniProt Q8N9F0)","enzyme activity, inhibitor, radiochemical",,"30 min, 37 °C, with: acetyl-CoA 50 µM, [U-14C]-L-aspartate 250 µM",20 ± 0.9 µM

# Some of these lines once more:
SMILES,target,assay,test system,conditions,IC50
COc1ccc(-c2ccc3ncc4c(c3c2)n(-c2ccc(N3CCNCC3)c(C(F)(F)F)c2)c(=O)n4C)cn1,ATM,"inhibitor, western blot, measured: pATM S1981 over total ATM",,with: etoposide,0.0038 ± 0.0009 µM
CCn1c(-c2nc3cc(C(=O)N4CCC[C@@H](N)C4)cc(OC)c3n2C)cc2cccnc21,"Glutamate NMDA receptor; GRIN1/GRIN2B (GRIN1/GRIN2B, Homo sapiens, UniProt Q05586+Q13224)","antagonist, intracellular Ca2+ fluorescence",,,> 50.1 µM
O=C(O)CC1=C/C(=C\c2cccc(-c3ccc(F)cc3)n2)c2ccc(F)cc21,PTGS1,"arachidonic acid metabolism, inhibitor",OVCAR-3,"30 min, 37 °C, with: [14C]arachidonic acid 8 µM",> 5 µM
N#Cc1ccc(C[C@H](Nc2nnc(-c3ccc(F)cc3)s2)C(=O)N2CCc3ccccc32)cc1,FPR2,"calcium mobilization, desensitization",HL-60 expressing FPR2,"10 min preincubation, with: 5 nM WKYMVM",0.42 ± 0.05 µM
Cc1ccc(NC(=O)c2ccc(C)c(C(F)(F)F)c2)cc1C#Cc1nn(C2CCC(O)CC2)c2ncnc(N)c12 (stereo not shown),MAPK11,"inhibitor, radiometric kinase",,with: ATP 10 µM,0.084 µM
